# Earlier results that unrelated publications cite.
# Each numbered part shows a few of the values that one paper quotes. “And” joins repeats or separate records; there may be more than shown.

# Series 1
# Target: HLA class I histocompatibility antigen, A alpha chain, allele A*25:01 (Homo sapiens, UniProt P04439)
# Observed: peptide-MHC binding
# Form: peptide
Sequence,IC50
NSESGNSRY,> 20 µM
ILNRETLLDFV,> 20 µM
WQDGGWQSV,> 20 µM
FPIPTEVVA,> 20 µM
FPNLQVDPT,> 20 µM
PSYQLPLPM,> 20 µM
DEFLKVPEW,> 20 µM
WLYDLWGQL,> 20 µM
TSASFTDLY,> 20 µM
LPSCPTNFCIF,> 20 µM
GAWCYDYTV,> 20 µM
YPDPVIKV,> 20 µM
FLRKNQRAL,> 20 µM
RKLTNPANK,> 20 µM
TFVPIAWAAAY,> 20 µM

# Single results of other studies
SMILES,target or system,assay,test system,setting,quantity,result
COC(=O)C[C@@H]1N=C(c2ccc(Cl)cc2)c2c(sc(C)c2C)-n2c(C)nnc21,"Bromodomain-containing protein 4, BD2 (BRD4, Homo sapiens, UniProt O60885)",,,,Kd,0.0254 µM
COP(=S)(OC)Oc1ccc(SC)c(C)c1,,,,pH 7.4,logD,3.8
O=C(NCC1CCOCC1)c1cnc(Nc2ccc(Cl)cc2Cl)nc1C(F)(F)F,cannabinoid receptor CB1,agonist,,,EC50,> 30 µM
C=CCN1C[C@H](C)N([C@H](c2ccc(C(=O)N(CC)CC)cc2)c2cccc(OC)c2)C[C@H]1C,,,,pH 7,logD,3.28
CNC(=NC#N)NCCCCCc1c[nH]cn1,,"antinociception, hot plate test",rat,"intracerebroventricular, 5 min",ED50,106 nmol
O=C(NC[C@H]1CN(c2ccc(N3CCOCC3=O)cc2)C(=O)O1)c1ccc(Cl)s1,prothrombinase (factor Xa-factor Va complex),inhibitor,,closed non-flow system,IC50,0.0021 µM
CCN(CC)CCCC(C)Nc1c2ccc(Cl)cc2nc2ccc(OC)cc12 (stereo not drawn),,,mouse liver microsomes,,intrinsic clearance,110 µL/min/mg protein
CC(C)c1nc(CN(C)C(=O)N[C@H](C(=O)N[C@@H](Cc2ccccc2)C[C@H](O)[C@H](Cc2ccccc2)NC(=O)OCc2cncs2)C(C)C)cs1,,,human,100 mg twice daily,colchicine AUC increase,296%
CNC(=NC#N)NCCCCc1[nH]cnc1C,,"antinociception, hot plate test",rat,"intracerebroventricular, 5 min",ED50,105 nmol
CN[C@H](CC(=O)O)C(=O)O,"Glutamate receptor ionotropic, NMDA 2B, with GluN1 (Grin2b, Rattus norvegicus, UniProt Q00960)",,,concentration not given,EC50,21.4 µM and 21 µM
CCN(CC)CCOc1ccc2c(c1)C(=O)c1cc(OCCN(CC)CC)ccc1-2,,,guinea pig liver microsomes,,intrinsic clearance,114 µL/min/mg protein
Cc1ccc(C(=O)Nc2ccc(Oc3cc4cnn(C)c4cc3-c3cn[nH]c3)c(F)c2)c(=O)n1-c1ccc(F)cc1,,,human,concentration not given,time to treatment failure,1.4 months
O=C1N[C@@H]2CCCC[C@H]2N[C@@H]1c1c[nH]c2ncccc12,COLO 205,cytotoxicity,,,IC50,> 100 µM
CCCC(C)(C)c1ccc2c(c1)OC(C)(C)[C@@H]1CC=C(C)C[C@@H]21,cannabinoid receptor CB1,agonist,,,EC50,> 1 µM
CN[C@H](CC(C)C)C(=O)N[C@H]1C(=O)N[C@@H](CC(N)=O)C(=O)N[C@H]2C(=O)N[C@H]3C(=O)N[C@H](C(=O)N[C@H](C(=O)O)c4cc(O)cc(O)c4-c4cc3ccc4O)[C@H](O)c3ccc(c(Cl)c3)Oc3cc2cc(c3O[C@@H]2O[C@H](CO)[C@@H](O)[C@H](O)[C@H]2O[C@H]2C[C@](C)(N)[C@H](O)[C@H](C)O2)Oc2ccc(cc2Cl)[C@H]1O,Veillonella sp.,,HM-49,,MIC,> 32 µg/mL

# Repeated from above (series 1):
Sequence,IC50
NSESGNSRY,> 20 µM
ILNRETLLDFV,> 20 µM
WQDGGWQSV,> 20 µM
FPIPTEVVA,> 20 µM
